Published values from different studies.

| SMILES | organism | assay | test system | conditions | MIC |
| --- | --- | --- | --- | --- | --- |
| COc1ccc(C2=[N+]([O-])c3ccccc3N3CCN=C23)cc1 | Clostridioides difficile | – | – | – | 0.125 to 1 µg/mL |
| CC[C@H](C)[C@H](NC(=O)[C@H](CCCNC(=N)N)NC(=O)[C@H](CO)NC(=O)[C@H](Cc1ccc(O)cc1)NC(=O)[C@@H](NC(=O)[C@@H](NC(=O)[C@H](C)NC(=O)CNC(=O)[C@H](CCCCN)NC(=O)[C@H](CCCCN)NC(=O)CCNC(=O)CCCCCNC(=O)[C@H](CCCNC(=N)N)NC(=O)CCCCCNC(=O)[C@H](CCCNC(=N)N)NC(=O)[C@H](CCCNC(=N)N)NC(=O)CCCCCNC(=O)[C@H](CCCNC(=N)N)NC(=O)[C@H](CCCNC(=N)N)NC(=O)CCCCCNC(=O)[C@H](CCCNC(=N)N)NC(=O)[C@H](CCCNC(=N)N)NC(=O)CCCCCNC(=O)[C@@H](N)CCCNC(=N)N)C(C)C)[C@@H](C)O)C(=O)N[C@@H](CO)C(=O)NCC(=O)N[C@@H](CCC(N)=O)C(=O)N[C@@H](Cc1ccc(O)cc1)C(=O)N[C@@H](CCCCN)C(=O)O | Escherichia coli | broth microdilution | ATCC 25922, Mueller-Hinton broth | with: MgCl2 20 mM | > 192 µM |
| CC1(C)S[C@@H]2[C@H](NC(=O)[C@H](NC(=O)C3=C(O)C(c4ccccc4F)NC3=O)c3ccccc3)C(=O)N2[C@H]1C(=O)O (stereo partly shown) | Escherichia coli | broth microdilution | Keio mutant JW2142-1 | – | 50 µg/mL |
| CC[C@H](C)[C@@H]1NC(=O)[C@H](CO)NC(=O)C(C)(CCCCN)NC(=O)[C@@H]2CSSC[C@@H](C(=O)N[C@@H](Cc3ccc(O)cc3)C(N)=O)NC(=O)[C@H](CCCCN)NC(=O)[C@@H]3CSSC[C@H](NC(=O)[C@H](CCCNC(=N)N)NC(=O)C(C)(CC(C)C)NC(=O)[C@H](CC(=O)O)NC(=O)[C@H](CC(=O)O)NC(=O)[C@H](CCC(=O)O)NC(=O)[C@H](CC(N)=O)NC(=O)[C@H](Cc4c[nH]c5ccccc45)NC(=O)[C@@H]4CCCN4C(=O)CNC(=O)[C@H](CC(N)=O)NC(=O)[C@@H](NC(=O)CNC(=O)[C@H](Cc4ccccc4)NC(=O)CN)CSSC[C@H](NC(=O)[C@H](Cc4ccc(O)cc4)NC(=O)CNC(=O)CNC(=O)[C@H](CCCCN)NC(=O)[C@H](Cc4ccc(O)cc4)NC(=O)CNC(=O)[C@H](CCCCN)NC1=O)C(=O)N[C@@H](C)C(=O)N[C@@H](CCCCN)C(=O)NCC(=O)NCC(=O)N[C@@H](Cc1ccccc1)C(=O)N[C@@H](C(C)C)C(=O)N3)C(=O)N[C@@H](Cc1c[nH]cn1)C(=O)NC(C)(C)C(=O)N[C@@H](Cc1c[nH]cn1)C(=O)N2 (stereo partly shown) | Streptococcus pneumoniae | broth microdilution | 19F | 18 h | 0.5 µM |
| CC[C@H](C)[C@H](N)C(=O)N[C@@H](CCCNC(=N)N)C(=O)N[C@H](C(=O)N[C@@H](Cc1c[nH]c2ccccc12)C(=O)N[C@@H](Cc1ccccc1)C(=O)N[C@H](C(=O)N[C@@H](CCCCN)C(=O)N[C@H](C(=O)N[C@@H](CCCNC(=N)N)C(=O)N[C@@H](CCCCN)C(=O)N[C@@H](CCSC)C(=O)N[C@@H](CCCCN)C(=O)N[C@@H](C)C(=O)N[C@H](C(=O)N[C@@H](Cc1ccc(O)cc1)C(=O)N[C@@H](Cc1c[nH]cn1)C(N)=O)[C@@H](C)CC)C(C)C)[C@@H](C)CC)C(C)C | Enterobacter sp. | broth dilution | KCTC 2625 | – | 50 µM |
| O=[N+]([O-])c1ccc(C2=[N+]([O-])c3ccccc3N3CCCN=C23)cc1 | Clostridioides difficile | – | – | – | 0.06 to 1 µg/mL |
| CC1COC2=C1C(=O)C(=O)c1c2ccc2c1C(OC(=O)CNC(=O)C(N)CO)CCC2(C)C (mixture of isomers) | Cutibacterium acnes | – | GDMCC 1.243 | 48 h, anaerobic | 63 µM |
| CC[C@H](C)[C@H](NC(=O)[C@H](CCCCN)NC(=O)[C@H](CCCCN)NC(=O)[C@H](Cc1ccccc1)NC(=O)[C@H](Cc1ccccc1)NC(=O)[C@H](CCCCN)NC(=O)[C@H](CCCCN)NC(=O)[C@H](Cc1ccccc1)NC(=O)[C@H](CCCNC(=N)N)NC(=O)[C@@H](N)CCCCN)C(=O)N[C@@H](CCCCN)C(=O)N[C@@H](CCCCN)C(=O)N[C@@H](CO)C(=O)N[C@H](C(=O)N[C@@H](CCCCN)C(=O)N[C@@H](CCCCN)C(=O)N[C@@H](CCCNC(=N)N)C(=O)N[C@H](C(=O)N[C@@H](CCCCN)C(=O)N[C@@H](CCCCN)C(=O)N[C@@H](CC(C)C)C(=O)N[C@@H](Cc1ccccc1)C(=O)N[C@@H](CCCCN)C(=O)N[C@@H](CCCCN)C(=O)N1CCC[C@H]1C(=O)N[C@@H](CCCNC(=N)N)C(=O)N[C@H](C(=O)N[C@H](C(=O)N1CCC[C@H]1C(=O)N[C@H](C(=O)N[C@@H](CO)C(=O)N[C@H](C(=O)N1CCC[C@H]1C(=O)N[C@@H](Cc1ccccc1)C(=O)O)[C@@H](C)CC)[C@@H](C)CC)[C@@H](C)CC)C(C)C)C(C)C)C(C)C | Pseudomonas aeruginosa | broth microdilution | P2 clinical isolate | 20 h | 4 µg/mL |
| CCCCCC(=O)NCCCC[C@H](NC(=O)CCCCC)C(=O)N[C@@H](CCCCNC(=O)CCCCC)C(=O)NCC(=O)NCC(=O)NCC(=O)N[C@@H](CS)C(=O)N[C@@H](CCCNC(=N)N)C(=O)N[C@@H](CCCCN)C(=O)N1CCC[C@H]1C(=O)N[C@@H](CS)C(=O)N[C@@H](CCCNC(=N)N)C(=O)N[C@@H](CCCCN)C(=O)N1CCC[C@H]1C(N)=O | Candida tropicalis | broth microdilution | CGMCC 2.197, RPMI-1640 | 48 h, 30 °C | 32 µM |
| O=c1n(CCNCCOS(=O)(=O)c2ccccc2)c(=O)n(S(=O)(=O)c2ccccc2)c(=O)n1S(=O)(=O)c1ccccc1 | Proteus mirabilis | microbial growth, broth dilution | – | – | 4 µg/mL |
| C[N+]1=C2C(c3ccc([N+](=O)[O-])cc3)=[N+]([O-])c3ccccc3N2CCC1 | Clostridioides difficile | – | – | – | 0.25 to 1 µg/mL |
| OB(O)c1cnn(-c2cc(Cl)ncn2)c1 | Citrobacter freundii | bacterial growth | AmpC overproducer clinical isolate | without cefotaxime | 2050 µg/mL |
| COc1ccc(NC(=O)COc2cccc(OCC(C)C)c2)cc1 | Saccharomyces cerevisiae | – | S288c wild type | – | 2 µg/mL |
| C=C1NC(=O)C2C[S+]([O-])CC3NC(=O)C(CSC(C)C(NC(=S)C(Cc4cnc[nH]4)NC(=O)c4csc(C(C)NC(C)=O)n4)C(=O)N[C@H](CC(C)C(=O)NC(=O)CC(C(=O)O)NC(=O)C(C)NC3=O)C(=O)N2)NC(=O)[C@@H]2CCCN2C(=O)[C@@H](CC(C)C)NC1=O (stereo partly shown) | Enterobacter aerogenes | – | ATCC 13048 | – | > 32 µg/mL |
| O=C(O)CN(CC(=O)O)CP(=O)(O)O | Providencia stuartii | – | NDM-1 producer | 32 µg/mL, MIC of meropenem, with: meropenem | 0.25 µg/mL |
| CC[C@H](C)[C@H](N)C(=O)N[C@@H](CCCNC(=N)N)C(=O)N[C@H](C(=O)N[C@@H](Cc1c[nH]c2ccccc12)C(=O)N[C@@H](Cc1ccccc1)C(=O)N[C@H](C(=O)N[C@@H](CCCCN)C(=O)N[C@H](C(=O)N[C@@H](CCCNC(=N)N)C(=O)N[C@@H](CCCCN)C(=O)N[C@@H](CCSC)C(=O)N[C@@H](CCCCN)C(=O)N[C@@H](C)C(=O)N[C@H](C(=O)N[C@@H](Cc1ccc(O)cc1)C(=O)N[C@@H](Cc1c[nH]cn1)C(=O)N[C@H](C(N)=O)[C@@H](C)O)[C@@H](C)CC)C(C)C)[C@@H](C)CC)C(C)C | Salmonella typhimurium | broth dilution | SL1344 | – | 3.1 µM |
| CC[C@H](C)[C@@H]1NC(=O)[C@H](CCCNC(=N)N)NC(=O)[C@H]([C@@H](C)O)NC(=O)[C@H](Cc2c[nH]c3ccccc23)NC(=O)[C@H](Cc2ccccc2)NC(=O)[C@H](Cc2c[nH]c3ccccc23)NC(=O)[C@H](CCCNC(=N)N)NC(=O)[C@H](CCCNC(=N)N)NC(=O)[C@H](CCCNC(=N)N)NC(=O)[C@H](Cc2ccccc2)NC(=O)CNC(=O)[C@H](CCCCN)NC(=O)[C@@H](NC(=O)[C@H](CCCNC(=N)N)NC(=O)CNC(=O)CN)CSSC[C@@H](C(N)=O)NC1=O | Botrytis cinerea | resazurin | synthetic fungal medium | with: NaCl 100 mM | 1.5 µM |
| CC[C@H](C)[C@H](NC(=O)[C@H](Cc1c[nH]c2ccccc12)NC(=O)[C@H](Cc1ccc(O)cc1)NC(=O)[C@H](CCCCN)NC(=O)[C@H](CC(C)C)NC(=O)[C@H](CO)NC(=O)[C@@H](N)Cc1ccccc1)C(=O)N[C@@H](CCCNC(=N)N)C(=O)N[C@@H](Cc1ccc(O)cc1)C(=O)N[C@@H](CCCCN)C(=O)N[C@@H](CCCNC(=N)N)C(=O)N[C@@H](CCC(N)=O)C(=O)NCC(=O)N[C@@H](C)C(=O)N[C@@H](C)C(=O)N[C@@H](CCCNC(=N)N)C(=O)N[C@@H](Cc1ccccc1)C(N)=O | Enterobacter sp. | broth dilution | KCTC 2625 | – | < 3.1 µM |
| CC[C@H](C)[C@H](NC(=O)[C@H](C)NC(=O)CNC(=O)[C@H](C)NC(=O)[C@H](CCCCN)NC(=O)[C@H](CO)NC(=O)[C@H](C)NC(=O)[C@H](CCSC)NC(=O)CN)C(=O)N[C@@H](C)C(=O)NCC(=O)N[C@@H](CCCCN)C(=O)N[C@H](C(=O)N[C@@H](C)C(=O)N[C@@H](CCCCN)C(=O)N[C@H](C(=O)N[C@@H](C)C(=O)N[C@@H](CC(C)C)C(=O)N[C@@H](CCCCN)C(=O)N[C@@H](C)C(=O)N[C@@H](CC(C)C)C(N)=O)C(C)C)[C@@H](C)CC | Escherichia coli | – | 0370, nalidixic acid-resistant, minimal salts medium | 18 h, 37 °C | 2.5 µg/mL |

Excerpt of the above:
| SMILES | organism | assay | test system | conditions | MIC |
| --- | --- | --- | --- | --- | --- |
| CC[C@H](C)[C@H](NC(=O)[C@H](CCCNC(=N)N)NC(=O)[C@H](CO)NC(=O)[C@H](Cc1ccc(O)cc1)NC(=O)[C@@H](NC(=O)[C@@H](NC(=O)[C@H](C)NC(=O)CNC(=O)[C@H](CCCCN)NC(=O)[C@H](CCCCN)NC(=O)CCNC(=O)CCCCCNC(=O)[C@H](CCCNC(=N)N)NC(=O)CCCCCNC(=O)[C@H](CCCNC(=N)N)NC(=O)[C@H](CCCNC(=N)N)NC(=O)CCCCCNC(=O)[C@H](CCCNC(=N)N)NC(=O)[C@H](CCCNC(=N)N)NC(=O)CCCCCNC(=O)[C@H](CCCNC(=N)N)NC(=O)[C@H](CCCNC(=N)N)NC(=O)CCCCCNC(=O)[C@@H](N)CCCNC(=N)N)C(C)C)[C@@H](C)O)C(=O)N[C@@H](CO)C(=O)NCC(=O)N[C@@H](CCC(N)=O)C(=O)N[C@@H](Cc1ccc(O)cc1)C(=O)N[C@@H](CCCCN)C(=O)O | Escherichia coli | broth microdilution | ATCC 25922, Mueller-Hinton broth | with: MgCl2 20 mM | > 192 µM |
| OB(O)c1cnn(-c2cc(Cl)ncn2)c1 | Citrobacter freundii | bacterial growth | AmpC overproducer clinical isolate | without cefotaxime | 2050 µg/mL |
